# Measurements of several laboratories.
# Every numbered part comes from another study and shows a few of its results, in no order.

# Series 1 — technique: protein binding microarray; form: double-stranded DNA, one strand shown; medium: in vitro; tested at: not given; baseline: not given; direction: higher = stronger binding
# Target: Histone acetyltransferase KAT6A, winged helix 1, GST fusion (KAT6A, Homo sapiens, UniProt Q92794, residues 1-85)
# Notes: 8-mer, flanks averaged, mean of 2 arrays, mostly near background
# Construct (chain): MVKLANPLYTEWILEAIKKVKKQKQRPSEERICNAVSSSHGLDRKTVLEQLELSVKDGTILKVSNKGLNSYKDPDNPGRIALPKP
Strand,E-score
CTACAACA,-0.137
GACGTCAA,-0.00864
GCAACGAA,-0.088
ACGGCATA,0.284
GATCGCCC,0.12
AGATTGGC,-0.169
AGGTCGGG,-0.0465
ACTAGCAC,-0.102
GACTATCC,-0.0663
CCTTCGAA,-0.101
AGCGTCCG,0.231
CCGTATAA,0.32
TGAATGCA,-0.257
AAATTCTT,-0.11
GAATGGCA,0.0332
GACACCAC,-0.126
GCAGCACC,-0.042

# Series 2 — technique: universal PBM; form: double-stranded DNA, one strand shown; medium: in vitro; tested at: 600 nM; direction: higher = stronger binding
# Target: Sal-like protein 4, full length isoform A (SALL4, Homo sapiens, UniProt Q9UJQ4, residues 1-1053)
# Chain of UniProt Q9UJQ4 (whole entry, looked up): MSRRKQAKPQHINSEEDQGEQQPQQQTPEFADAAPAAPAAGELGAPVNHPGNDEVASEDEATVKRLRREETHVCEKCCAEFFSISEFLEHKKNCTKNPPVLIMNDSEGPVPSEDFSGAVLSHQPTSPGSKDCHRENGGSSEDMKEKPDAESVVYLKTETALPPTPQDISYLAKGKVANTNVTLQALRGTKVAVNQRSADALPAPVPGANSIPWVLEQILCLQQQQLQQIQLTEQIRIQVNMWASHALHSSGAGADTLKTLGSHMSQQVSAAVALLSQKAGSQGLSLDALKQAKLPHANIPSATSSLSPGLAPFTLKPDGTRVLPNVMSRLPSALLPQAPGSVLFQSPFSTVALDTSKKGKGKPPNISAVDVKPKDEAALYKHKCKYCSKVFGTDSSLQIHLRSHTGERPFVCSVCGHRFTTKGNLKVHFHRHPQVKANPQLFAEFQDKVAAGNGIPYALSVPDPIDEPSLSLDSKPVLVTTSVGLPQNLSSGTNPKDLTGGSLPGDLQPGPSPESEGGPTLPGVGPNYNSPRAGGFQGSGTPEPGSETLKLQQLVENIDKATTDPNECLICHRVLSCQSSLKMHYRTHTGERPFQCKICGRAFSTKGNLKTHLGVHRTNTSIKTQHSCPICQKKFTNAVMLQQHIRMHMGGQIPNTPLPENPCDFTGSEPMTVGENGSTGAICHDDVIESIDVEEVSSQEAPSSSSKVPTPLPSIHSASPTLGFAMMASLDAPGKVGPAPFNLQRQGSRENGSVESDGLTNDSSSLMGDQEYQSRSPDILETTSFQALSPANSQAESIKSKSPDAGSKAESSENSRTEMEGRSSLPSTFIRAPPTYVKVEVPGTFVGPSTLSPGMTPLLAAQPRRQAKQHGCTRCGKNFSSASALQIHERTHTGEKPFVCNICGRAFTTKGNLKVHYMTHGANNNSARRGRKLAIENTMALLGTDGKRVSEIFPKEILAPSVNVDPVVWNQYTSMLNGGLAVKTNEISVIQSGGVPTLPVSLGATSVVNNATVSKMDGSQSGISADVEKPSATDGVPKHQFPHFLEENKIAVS
# Notes: 8-mer, flanks averaged, mean of replicates
Strand,E-score
GCACTGTA,-0.0284
AAATGTCT,0.205
GATAAAAA,0.307
ACTTGAAT,0.228
CACCCCTG,-0.256
TCTAATAA,0.358
CCAAGTTA,0.195
CCAAGCAG,-0.188
AACCATAT,0.303
ACGCTGCC,-0.331
CGAATAAC,0.122
AACATCCT,-0.0105
CAGCGGGG,-0.291
AGGATTCA,0.147
GCACTTAA,0.132
ACATACCT,0.134
GGCCGCAC,-0.268
AATCTCGT,0.0637
AGGTCCGG,-0.374
ACTTTCCC,-0.123

# Series 3 — technique: EMSA with sequencing; form: double-stranded DNA, one strand shown; medium: in vitro; tested at: 10 and 20 nM; baseline: negative control set to 0; direction: higher = stronger binding
# Target: Hepatocyte nuclear factor 3-alpha (Foxa1, Mus musculus, UniProt P35582, residues 1-468, full length assumed)
# Notes: whole designed probe, mean of two concentrations, ends assumed
# Shared flanks, not repeated: GTGAGCGGTGCCCATTGATGGGGAAC … TTTCACTGGGATCGTGGGGAC
# Residues (chain): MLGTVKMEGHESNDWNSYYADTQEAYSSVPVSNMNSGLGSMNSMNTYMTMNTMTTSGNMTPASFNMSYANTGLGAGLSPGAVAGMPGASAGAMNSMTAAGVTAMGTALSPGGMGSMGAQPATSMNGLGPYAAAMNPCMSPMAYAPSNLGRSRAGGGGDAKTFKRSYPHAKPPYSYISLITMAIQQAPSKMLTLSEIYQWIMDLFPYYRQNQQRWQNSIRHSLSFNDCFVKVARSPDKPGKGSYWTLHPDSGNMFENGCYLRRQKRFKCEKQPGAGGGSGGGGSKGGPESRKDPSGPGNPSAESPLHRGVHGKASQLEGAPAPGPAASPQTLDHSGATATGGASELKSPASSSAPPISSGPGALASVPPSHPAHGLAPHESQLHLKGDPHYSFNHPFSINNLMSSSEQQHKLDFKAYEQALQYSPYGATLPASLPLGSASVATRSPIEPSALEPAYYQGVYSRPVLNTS
Strand,normalised bound fraction [ratio]
TAACTCCCAAAAAACACACAGAAAGCCATTACAAAGCATAAAACAGACCAAGGAAAAATTAATAGCACTTGAACTTCCCACCAGATCCCAAAGTAAACATGAAGCCCATAGTGTCACAGTCAACACTTCAAAAAACTCCTTCAGGTGGGCCCCAAGATCTCCATACATGGGAAAACCATGTCAGAAAGATGAA,0.426
TACTGATATAAAAATAGGCATATAGACCAATGGAACAGAATAGAGAACCCAGAAATAAAACCAAATACTTACAGCCAACAGATTTTTGACAAAGCAATCTAAAACATGAAGTGGGGAAAGGAAACCCTATTGAACAAATAATGGAGGGATGTTTAGCAAGCCACATGTAGAAGAATAAAACTGGAAACTCATC,0.339
CTCATTCCTTGCTTCCGCCAATAATCTGACTAGTAAAGAAGTCACTGCATGCCACAAATTGTCAGTGCTGACTTCCTCAACAAGGAAGTATAAGTAAATAAATAGAGTGACTCAGTTAATATATATGCAAATTCCATCTTGAGAATACCAACTCCTGATGCCAACTGATTGTCAGTCATGGCTACAACAGGAG,0.418
GACAGTACATGTTTTAGGATTTTTGGACCACACAGTCTCTGTCACAATGACTCAGCTTTGCCATTGTAGCGTGCAAACAGCCACAAACCATATGCAAACAAAGAGGGTGTGGTTGTATGCCAATAAAACTTTATTTACAAAAGCAGGAGGACAGTGGAGTTGGCTTGCAGACAGTCATTTGCAGAGCCCTGAT,0.454
ATCTTCCCCCTCTTCCTTGCCCCACCAGCTCACCTTCCCGGGTTATTTGCAGATAGGAAAATAAATAAAGCCGGCATTCGTTAACCCTCTTCTGGCGCAAACTGCTGTTTGCTCTGGATCTAACATGGTCCTTTGGCGAGGCGTGGCTCCGGGAGAGCAAAGCACCGTGTCAGGGCCATGATCCGGGGTGGCC,0.342
CAAGGCTGCTCACCCACTTCTTTAACCATTCTTCAAAAAAGTGAGCTGTTGTTATTGAACTTTTTATTATTACTTAATTACAAGAAAAAACAAAGTAATCTACCAAAAAAAATATAGTGTTGAGAAAATGCCAAGGCTGTTCACCCACTTCTTTAACCATTCTTCAAATTTACCATATATATATTTTTTTGAC,1.6e-05
TCGGCCAGCCTGGCTTCTGCGCCCCGCCAGGAGGTCGCGGAGCGGAGCGCGGCCAGGAAGTGAGCTGAGAATGACTCATTCCCCCACGCTGTTTGTTTATTCATGTCACATTCTCTCCACACACTGGCTCTTCTTTCTTTCGGGAGGAGGGGAGAAAGGAGCGGGAGGGCGGGCGGGCAGGGGAGAGGCAGGC,0.362
CCACCGCGCCTGGCCGAGAGCTCAGCGTTTTAAAACCTATAGTAGGCTGTTTTTTTCACGTCAATGTCAAATGTTTGTGTCTGTTTTTCAAAGGTAATTTAGAAGTCTGTTGTCTGTTGCAGTCTGAACTCTAGAGTGTAAGATCTGACATATCAAAGGCAAGAGTAAAAAGAGAAGGTGGTGCATGCATGTA,-0.0553

# Series 4 — technique: protein-binding microarray; form: double-stranded DNA, one strand shown; medium: in vitro; tested at: 0.8 µM; notes: whole 60-bp probe, no competitor; direction: higher = stronger binding; shared flanks, not repeated: … GTCTTGATTCGCTTGACGCTGCTG
# Target: Centromere-binding protein 1, full length, N-terminal tag (CBF1, Saccharomyces cerevisiae, UniProt P17106, residues 1-351)
# Chain of UniProt P17106 (whole entry, looked up): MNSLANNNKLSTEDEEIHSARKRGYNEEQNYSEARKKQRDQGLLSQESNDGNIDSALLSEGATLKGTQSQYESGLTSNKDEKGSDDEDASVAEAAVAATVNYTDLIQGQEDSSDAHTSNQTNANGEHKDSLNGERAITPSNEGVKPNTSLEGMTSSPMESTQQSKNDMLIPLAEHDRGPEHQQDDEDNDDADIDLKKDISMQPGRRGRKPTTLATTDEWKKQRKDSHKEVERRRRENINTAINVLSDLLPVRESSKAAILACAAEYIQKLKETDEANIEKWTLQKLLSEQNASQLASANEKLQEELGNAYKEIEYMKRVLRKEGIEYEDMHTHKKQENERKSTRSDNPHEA
Strand,fluorescence intensity [a.u.]
GAATACAAAATTTTACATGTGGTACTATTTCTCTAG,610
GAACATCAAGATGATTTCGTGACACATACTCTTTAG,554
TGTACGAAGCTATGTTATGTCACTATAGTAGTTAGG,494
GAATTCAATAAATGTCACCACAATACCGATGCTTAG,492
CTAAACGTTGCTCCTCACCTGCATCTTGTAAGCTTC,516
GAACATAGGCGCTACCATGTGGACAATGTGGATTAG,600
TGTACGAAGCTATGTGTCATGCCTATAGTAGTTAGG,633
CTAGTTCGAGAACGTCAGGCATGATAGATGGTTTTC,531
CTAACTAATCAAAATCACGGTAGAAATAGGAGATTC,553
CTATTTTCGCATTCTATCACCTGTATTATTATATTC,755
GAAGTAATACTGGATCAGGAGGGTATGATAATGTAG,682
CTAGTTCAAAGCGATCACGAATATTTTAAGAACTTC,586
GAACACAACACAATGCTCGTGGGTCGTTACCCGTAG,493
TGTACGAAGCTATCAGATGTCACTATAGTAGTTAGG,562
GAATCCCAGCCAGCCTTTCTTGTATTTTGAATGTAG,495
TGTACGAAGCTATATTACATCATTATAGTAGTTAGG,530
TGTACGAAGCTATGTGGTGTGTGTATAGTAGTTAGG,564
GAACTTTATATGGATCGCGTGATGTTTTAAGCCTAG,2080
GAAAGGGTGGAAGGACATCAGGCATAAGGAAGTTAG,530
GAATGCATTCACTGCCATGTGCAAATAAAGGCTTAG,852
CTAAGTATCGCGCTGCACGAGCGTGACGGCGGTTTC,720
GAACGTCAAAGACAACACGTTGGCAAAGGTAAGTAG,598
TGTACGAAGCTATATGCACGTGTTATAGTAGTTAGG,8930
GAAACTAGTAGGAATTGCGTGAAGTACTATATATAG,524
CTATGGGGTGAGTGTCACGTGCACAACGACGGTTTC,20900

# Series 5 — technique: protein-binding microarray; form: double-stranded DNA, one strand shown; medium: in vitro; tested at: 2540 nM top; notes: 60-bp whole probe; with: salmon DNA 0.4 mg/ml; baseline: random background probes; direction: higher = stronger binding; shared flanks, not repeated: GCCTAGCAC … GTCTTGATTCGCTTGACGCTGCTG
# Target: Interferon regulatory factor 3, full length, phosphomimetic (IRF3, Homo sapiens, UniProt Q14653, residues 1-427, S386D/S396D/S398D/S402D/T404D/S405D)
# Residues (chain): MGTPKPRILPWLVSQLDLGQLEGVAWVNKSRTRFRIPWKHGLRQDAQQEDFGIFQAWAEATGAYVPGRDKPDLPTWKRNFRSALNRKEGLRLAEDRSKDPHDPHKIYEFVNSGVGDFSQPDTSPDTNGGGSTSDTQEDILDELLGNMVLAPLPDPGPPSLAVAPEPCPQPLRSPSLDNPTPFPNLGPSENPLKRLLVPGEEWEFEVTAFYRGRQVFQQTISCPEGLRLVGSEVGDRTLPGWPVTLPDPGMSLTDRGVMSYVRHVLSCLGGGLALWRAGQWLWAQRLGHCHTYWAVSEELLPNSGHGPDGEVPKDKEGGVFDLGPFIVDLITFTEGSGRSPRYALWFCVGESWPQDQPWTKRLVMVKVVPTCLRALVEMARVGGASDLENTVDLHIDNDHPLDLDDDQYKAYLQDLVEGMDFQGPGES
Strand,fitted relative affinity [z-score]
TCATACTTCACTCTCTGACTGTGCTAG,0.535
TCATTTTTTTTTTTTTGACTGTGCTAG,1.13
TTAGGTTTCAGACTGGGTTAGTGCTAG,2.19
TCAAAAATGCCCTTTTGGACTGTGCTA,1.24
GACGGTTTCGGACTGGGAACGTGCTAG,4.51
GACGGTATGGGTATCGGGACGTGCTAG,0.0358
TTAGGACTGCTTCGCCTTTAGTGCTAG,-0.479
TCAGTTCTGCTTCTTAGACTGTGCTAG,1.87
GACGATTTCGGATATCGAGACGTGCTA,2.95
TCAAATTTTCAATTCCTACTGTGCTAG,1
TGGGAAATTCCTCTGAGGCAGTGCTAG,-0.174
GACGAACTGGGGTTCCGAGACGTGCTA,-0.383
TTTTTTTTTTTTTTTTACTTGTGCTAG,1.61
GACGGACTGGGGCTCGGGACGTGCTAG,-1.12
TTAGATATCAGTTTCGATTGGTGCTAG,3.97
TCATTTCCCAAGTTTATAACTGTGCTA,2.46
TTAGGTATCGGGTACCGGTTAGTGCTA,1.32
CTTCTTTTGCTAATTTTTTTGTGCTAG,2.77

# A few entries again (series 4):
Strand,fluorescence intensity [a.u.]
CTAAGTATCGCGCTGCACGAGCGTGACGGCGGTTTC,720
GAACTTTATATGGATCGCGTGATGTTTTAAGCCTAG,2080
CTAACTAATCAAAATCACGGTAGAAATAGGAGATTC,553
GAACACAACACAATGCTCGTGGGTCGTTACCCGTAG,493
CTAGTTCAAAGCGATCACGAATATTTTAAGAACTTC,586
CTATTTTCGCATTCTATCACCTGTATTATTATATTC,755
TGTACGAAGCTATATTACATCATTATAGTAGTTAGG,530
GAATTCAATAAATGTCACCACAATACCGATGCTTAG,492
TGTACGAAGCTATATGCACGTGTTATAGTAGTTAGG,8930
GAAGTAATACTGGATCAGGAGGGTATGATAATGTAG,682
GAATACAAAATTTTACATGTGGTACTATTTCTCTAG,610
